{"data": "Published values collected from several papers", "note": "Every numbered part comes from another study and shows a few of its results, in no order."}
{"data": "Sample 1", "organism": "Plasmodium berghei", "strain": "ANKA", "species": "infected mice", "route": "oral", "dose": "54 mg/kg single dose", "time": "24 h post-infection"}
{"SMILES": "CCOP(=O)(OCC)OCc1ccc(S(=O)(=O)CC(C[C@H]2O[C@@H]3C[C@]4(C)CC[C@H]5[C@H](C)CC[C@@H]([C@H]2C)[C@@]35OO4)C[C@H]2O[C@@H]3C[C@]4(C)CC[C@H]5[C@H](C)CC[C@@H]([C@H]2C)[C@@]35OO4)cc1", "mean survival time [days]": 14.8}
{"SMILES": "C[C@H]1[C@@H](CC(C[C@H]2O[C@@H]3C[C@]4(C)CC[C@H]5[C@H](C)CC[C@@H]([C@H]2C)[C@@]35OO4)CS(=O)(=O)Cc2ccc(F)cc2)O[C@@H]2C[C@]3(C)CC[C@H]4[C@H](C)CC[C@@H]1[C@@]24OO3 (stereo partly shown)", "mean survival time [days]": 14.6}
{"SMILES": "C[C@H]1[C@@H](CC(C[C@H]2O[C@@H]3C[C@]4(C)CC[C@H]5[C@H](C)CC[C@@H]([C@H]2C)[C@@]35OO4)CS(=O)(=O)CCCCCCO)O[C@@H]2C[C@]3(C)CC[C@H]4[C@H](C)CC[C@@H]1[C@@]24OO3 (stereo partly shown)", "mean survival time [days]": 11}
{"data": "Sample 2", "SMILES": "CC[C@H](C)[C@H](NC(=O)[C@H](CCCCN)NC(=O)[C@H](CCC(N)=O)NC(=O)[C@H](Cc1ccccc1)NC(=O)[C@@H](NC(=O)[C@H](CCCCN)NC(=O)[C@H](CCCCN)NC(=O)[C@H](CC(C)C)NC(=O)[C@H](C)NC(=O)[C@H](CC(N)=O)NC(=O)[C@@H](N)CC(C)C)C(C)C)C(=O)N[C@@H](Cc1c[nH]cn1)C(=O)N[C@@H](CCC(=O)O)C(=O)N[C@@H](C)C(N)=O", "time": "18 h", "temperature": "37 °C"}
{"organism": "Pseudomonas aeruginosa", "system": "4007, resistant", "MIC": "16 µM"}
{"organism": "Escherichia coli", "assay": "broth microdilution", "system": "ATCC 25922", "MIC": "16 µM"}
{"organism": "Escherichia coli", "system": "CCARM 1238, resistant", "MIC": "16 µM"}
{"organism": "Listeria monocytogenes", "assay": "broth microdilution", "system": "KCTC 3710", "MIC": "32 µM"}
{"organism": "Pseudomonas aeruginosa", "assay": "broth microdilution", "system": "ATCC 27853", "MIC": "16 µM"}
{"data": "Single results of other studies"}
{"Compound": "CN1CC[C@]23c4c5ccc(O)c4O[C@H]2[C@@H](O)C=C[C@H]3[C@H]1C5", "target or system": "HEK293", "assay": "GTPγS binding, agonist", "how to read": "baseline: DAMGO", "measurement": "relative intrinsic efficacy", "result": 0.18}
{"Compound": "COC[C@@H](Cc1ccc(OC)c(OC)c1)[C@@H](COC)Cc1ccc(OC)c(OC)c1", "target or system": "Hepatitis C virus", "assay": "viral replication, item: HCV negative-strand RNA", "system": "Huh-7 with HCV genotype 2a replicon, genotype 2a", "conditions": "48 h", "measurement": "EC50", "result": "250 µM"}
{"note": "Some of these lines once more (sample 2):"}
{"organism": "Escherichia coli", "system": "CCARM 1238, resistant", "MIC": "16 µM"}
{"organism": "Listeria monocytogenes", "assay": "broth microdilution", "system": "KCTC 3710", "MIC": "32 µM"}
